# Assay results pooled from the literature.
# Compare with care: the assays were run in different laboratories. Numbers after ± are the reported error.
SMILES,tested on,test,system,conditions,how to read,quantity,result
C=CC(=O)N1[C@H](c2ccc3c(c2)OCO3)c2[nH]c3ccccc3c2C[C@@H]1C(=O)N1CCN(C)CC1,human cyclin E1 N112C-3xFLAG:CDK2,"co-IP with TMT proteomics, measured: HNRNPA1",,"concentration not given, P09651",baseline: wild type DMSO,relative co-enrichment,202%
O=C(CC(F)(F)F)Nc1ccc(C2CCCCC2)cc1,,hepatocyte stability,cryopreserved mouse hepatocytes,1 µM,,hepatic clearance,80 mL/min/kg
Nc1ncc(-c2cc(-c3cnn(CC(F)(F)F)c3)ncc2F)nc1C(=O)NC1CNCC(F)C1 (stereo not drawn),SRPK3,KINOMEscan,,1 µM,baseline: DMSO control,remaining binding,79%
O=C(N/N=C/c1ccc(C[n+]2ccccc2)cc1)c1cccc(C(=O)N/N=C/c2ccc(C[n+]3ccccc3)cc2)n1,22CTA telomeric G4-DNA antiparallel,FRET melting,,"1 µM, K10 buffer, DNA 0.2 µM",,ΔTm,11.5 ± 0.8 °C
CN1CCCNC(=O)c2cccc(c2)C(=O)NCCCN(C)CCCNc2cccc3c2C(=O)c2cccc(c2C3=O)NCCC1,SAS,"RNA-Seq, measured: HIKESHI mRNA",,"1 µM, 6 h",baseline: untreated cells,log2 fold change,-0.564
COC1CN([C@H]2CC[C@H]([C@@]3(C)Oc4c(Cl)cc(C(=O)NCc5c(SC)cc(C)[nH]c5=O)c(C)c4O3)CC2)C1,,"RNA-seq, measured: PRXL2A","human, whole blood","dose not given, 24 h",baseline: pretreatment baseline,log2 fold change,1.03
O=C(N/N=C/c1ccc2c(ccc[n+]2Cc2ccccc2)c1)c1cccc(C(=O)N/N=C/c2ccc3c(ccc[n+]3Cc3ccccc3)c2)n1,22CTA telomeric G4-DNA antiparallel,FRET melting,,"1 µM, K10 buffer, DNA 0.2 µM, added: ds26 10 µM",,ΔTm,15.2 ± 0.2 °C
C=CC(=O)Nc1cccc(Cn2ncc3cnc(Nc4cnn(CCOC)c4)nc32)c1,CHEK1 human,"binding, KINOMEscan",,100 nM,lower = stronger binding,percent of control,100%
CN(C)C(=O)CNC(=O)c1ccc([C@H]2[C@@H](F)[C@@H](F)C[C@@H](F)[C@H]2F)cc1,,hepatocyte stability,cryopreserved human hepatocytes,1 µM,,hepatic clearance,6.2 mL/min/kg
C[n+]1cccc2cc(/C=N/NC(=O)N/N=C/c3ccc4c(ccc[n+]4C)c3)ccc21,22CTA telomeric G4-DNA antiparallel,FRET melting,,"1 µM, K10 buffer, DNA 0.2 µM, added: ds26 10 µM",,ΔTm,2 ± 0.9 °C
C=C(NC(=O)c1csc(-c2nc3c(cc2O)-c2nc(cs2)C(=O)NC(C(C)O)C(=O)NC(=C(C)OC)c2nc(cs2)C(=O)NC2c4nc(cs4)C(=O)NC(COC(=O)c4c5c6c(cccc6n4O)COC(=O)C(OC4CC(C)(O)C(N(C)C)C(C)O4)C2OC5)c2nc-3cs2)n1)C(N)=O (stereo not drawn),Streptococcus pneumoniae,,"-4, immunocompromised mice, lung infection, lung","2 mg/kg/day once daily, 24 h post-dose",,bacterial load,5 log CFU/g
C[n+]1ccc(/C=N/NC(=O)c2ccc3ccc4ccc(C(=O)N/N=C/c5cc[n+](C)c6ccccc56)nc4c3n2)c2ccccc21,22CTA telomeric G4-DNA antiparallel,FRET melting,,"1 µM, K10 buffer, DNA 0.2 µM, added: ds26 10 µM",,ΔTm,11.9 ± 0.3 °C
Cc1ncsc1-c1ccc(C(C)NC(=O)C2CC(O)CN2C(=O)C(NC(=O)CCCCCCCCCCN2CCCC(Nc3ncc(Cl)c(Nc4ccccc4S(=O)(=O)C(C)C)n3)C2)C(C)(C)C)cc1 (stereo not drawn),22Rv1,"RNA-seq, measured: MEIS3P1 mRNA",,concentration not given,baseline: DMSO,log2 fold change,-1.24
O=C(N/N=C/c1ccc(C[n+]2ccccc2)cc1)C(=O)N/N=C/c1ccc(C[n+]2ccccc2)cc1,22CTA telomeric G4-DNA antiparallel,FRET melting,,"1 µM, K10 buffer, DNA 0.2 µM, added: ds26 10 µM",,ΔTm,5.3 ± 2.4 °C
CCN(CC)CC(=O)Nc1cccc(-n2cc(-c3ccc4ccc(-c5cn(-c6cccc(NC(=O)CN(CC)CC)c6)nn5)cc4c3)nn2)c1,RCC4,"PCR array, measured: HGF",,"5 x IC50, 2 h, normoxia",baseline: untreated,fold regulation,1.02
Cc1nn(-c2cccc(N)c2)c(=O)c2cnc(Nc3ccc(N4CCNCC4)cc3)nc12,"ABL1 (Homo sapiens, UniProt P00519, Y253F)","enzyme activity, inhibitor",,,,IC50,0.561 µM
c1ccc(-c2n[nH]cc2-c2ccnc3ccccc23)nc1,ENV7 (Candida albicans),"kinase binding, MIB/MS competition",Candida albicans lysate,1 µM,baseline: DMSO,log2 fold change,0.12
CNS(=O)(=O)Nc1nccc(Cc2c(C)c3ccc(Oc4ncccc4F)cc3oc2=O)c1F,NCI-H2052,cell viability,,7 days,,IC50,> 1 µM

# For quick reference, copied from above:
SMILES,tested on,test,system,conditions,how to read,quantity,result
CCN(CC)CC(=O)Nc1cccc(-n2cc(-c3ccc4ccc(-c5cn(-c6cccc(NC(=O)CN(CC)CC)c6)nn5)cc4c3)nn2)c1,RCC4,"PCR array, measured: HGF",,"5 x IC50, 2 h, normoxia",baseline: untreated,fold regulation,1.02
Cc1nn(-c2cccc(N)c2)c(=O)c2cnc(Nc3ccc(N4CCNCC4)cc3)nc12,"ABL1 (Homo sapiens, UniProt P00519, Y253F)","enzyme activity, inhibitor",,,,IC50,0.561 µM
c1ccc(-c2n[nH]cc2-c2ccnc3ccccc23)nc1,ENV7 (Candida albicans),"kinase binding, MIB/MS competition",Candida albicans lysate,1 µM,baseline: DMSO,log2 fold change,0.12
